Published values from different studies.
Protocols differ between the studies behind these lines. “And” joins repeats or separate records; there may be more than shown. ± gives the spread as reported.
FLP: Female-specific lacrimal gland protein (FLP, Mesocricetus auratus, UniProt Q99MG7)
Lrrk2: Leucine-rich repeat serine/threonine-protein kinase 2 (Lrrk2, Mus musculus, UniProt Q5S006)
KAT8: Histone acetyltransferase KAT8 (KAT8, Homo sapiens, UniProt Q9H7Z6)
CYP2E1: Cytochrome P450 2E1 (CYP2E1, Homo sapiens, UniProt P05181)
NNMT: Nicotinamide N-methyltransferase (NNMT, Homo sapiens, UniProt P40261)

With `CCCCCCC=O` the Ki was 11.4 µM (FLP; binding, fluorescence displacement; together with: 1-NPN 2 µM).
`Cn1ccc(=O)[nH]c1=O` gave a Ki of > 5000 µM (uracil transporter; uracil uptake, inhibitor; Trypanosoma brucei brucei, bloodstream form; 30 s, together with: 0.15 µM [3H]-uracil).
The Ki of `CCCN(CCC1(O)CC(NS(=O)(=O)c2ccc(F)c(F)c2)C1)[C@H]1CCc2nc(N)sc2C1` (stereo in doubt) is reported as 0.057 ± 0.0074 µM (dopamine D2-like receptor, rat; radioligand binding; rat striatal membranes; high-affinity component, together with: [3H]spiperone).
`CC(=O)N[C@H](CSSC[C@H](N)C(=O)O)C(=O)N[C@H](C)C(=O)N[C@H](CCCNC(=N)N)C(=O)N[C@H](CCCNC(=N)N)C(=O)N[C@H](CCCNC(=N)N)C(=O)N[C@H](C)C(=O)N[C@H](CCCNC(=N)N)C(N)=O` has a Ki of 0.6 µM (Extracellular calcium-sensing receptor (CASR, Homo sapiens, UniProt P41180); allosteric activator, population PK/PD model; haemodialysis patients with secondary hyperparathyroidism; intravenous).
With `CCCn1c(=O)n(CCCCN2CCN(c3ccc(F)cc3)CC2)c2ccccc21` the Ki was > 10 µM (rat NMDA receptor PCP site; rat brain membranes; together with: [3H]TCP).
`Nc1ncnc2c1ncn2[C@@H]1O[C@H](COP(=O)(O)OP(=O)(O)NP(=O)(O)O)[C@@H](O)[C@H]1O` gave a Ki of 700 ± 100 µM (Lrrk2; enzyme activity, inhibitor, radiometric; Ki,e, together with: LRRKtide substrate varied).
With `CCCN(CC[C@]1(O)C[C@@H](NS(=O)(=O)c2ccccc2Cl)C1)[C@H]1CCc2nc(N)sc2C1` (relative stereo) the Ki was 0.286 ± 0.049 µM (dopamine D2-like receptor, rat; radioligand binding; rat striatal membranes; high-affinity component, together with: [3H]spiperone).
`CCOC(=O)[C@]1(CS)N[C@H](C(=O)O)C(C)(C)S1` gave a Ki of 1.3 ± 0.1 µM (sfhI (Serratia fonticola, UniProt Q9RMI1); enzyme activity, inhibitor; pH 7.5, 30 °C, together with: imipenem substrate).
`O=C1O[C@H](CO)[C@@H](O)[C@H](O)[C@H]1O` has a Ki of 11300 µM (beta-glucosidase (Penicillium italicum); non-competitive inhibitor; up to 0.8 mM, pH 4.5, 60 °C, together with: pNP-glucoside).
`O=C(O)c1c(O)cccc1CCCCCO`: Ki “no inhibition” (KAT8; enzyme activity, inhibitor; up to 400 µM, together with: 4 µM acetyl-CoA, 60 µM histone substrate).
For `O=C1C=CNC(=O)C1`, the Ki was > 5000 µM (uracil transporter; uracil uptake, inhibitor; Trypanosoma brucei brucei, bloodstream form; 30 s, together with: 0.15 µM [3H]-uracil).
With `CCCCCCCCCC=O` the Ki was 17 ± 1 µM (CYP2E1; competitive inhibitor; human liver S9; 30 min, pH 7.4, together with: p-nitrophenol substrate).
For `CCCCCC(C)=O`, the Ki was 14.1 µM (FLP; binding, fluorescence displacement; together with: 1-NPN 2 µM).
`Nc1ccn([C@@H]2O[C@H](COP(=O)(O)O)[C@@H](O)[C@H]2O)c(=O)n1` has a Ki of 766 ± 90 µM (Phosphopantothenoylcysteine synthetase (Enterococcus faecalis, UniProt Q830W3); enzyme activity, inhibitor; pH 7.6, 37 °C, competitive versus CTP, together with: CTP).
`CCCN(CCC1(O)CC(NC(=O)c2ccc(Cl)cc2)C1)[C@H]1CCc2nc(N)sc2C1` (stereo in doubt) gave a Ki of 0.244 ± 0.046 µM (dopamine D2-like receptor, rat; radioligand binding; rat striatal membranes; high-affinity component, together with: [3H]spiperone).
With `COc1nccnc1CC(C)C` the Ki was 1.96 µM (FLP; binding, fluorescence displacement; together with: 1-NPN 2 µM).
The Ki of `CCCN(CC[C@]1(O)C[C@@H](NC(=O)c2cccc(OC)c2)C1)[C@H]1CCc2nc(N)sc2C1` (relative stereo) is reported as 9.79 ± 1.5 µM (dopamine D2-like receptor, rat; radioligand binding; rat striatal membranes; high-affinity component, together with: [3H]spiperone).
With `OC1CCCc2cc(OCc3ccc(Cl)cc3)ccc21` (centres unmarked) the Ki was 0.0065 µM (Amine oxidase [flavin-containing] B (MAOB, Homo sapiens, UniProt P27338); enzyme activity, inhibitor).
For `CC1=NN(c2ccc(S(=O)(=O)O)cc2)C(=O)C1`, the Ki was 48 µM and 48.3 µM (Ubiquitin-associated and SH3 domain-containing protein B, phosphatase domain (UBASH3B, Homo sapiens, UniProt Q8TF42); phosphatase activity, competitive inhibitor; together with: pNPP).
`CCCCCCCCCCCCCCCCCCNCCCc1ccc([N+](=O)[O-])cc1` gave a Ki of 9 ± 0.4 µM (Sigma intracellular receptor 2 (Tmem97, Rattus norvegicus, UniProt Q5U3Y7); [3H]-DTG displacement; rat liver membranes; together with: (+)-pentazocine 100 nM).
The Ki of `CCCN(CC[C@]1(O)C[C@@H](NC(=O)c2cccc(F)c2)C1)[C@H]1CCc2nc(N)sc2C1` (relative stereo) is reported as 0.264 ± 0.046 µM (dopamine D2-like receptor, rat; radioligand binding; rat striatal membranes; high-affinity component, together with: [3H]spiperone).
The Ki of `Cc1ccc(S(=O)(=O)N/N=C\C=C\c2ccccc2)cc1` is reported as 48.8 µM (Replicase polyprotein 1ab, main protease (Feline coronavirus, UniProt Q98VG9); enzyme activity, inhibitor, fluorescence).
With `Nc1ncnc2c1ncn2[C@@H]1O[C@H](CSCC[C@H](N)C(=O)O)[C@@H](O)[C@H]1O` the Ki was 82.9 µM (NNMT; ligand displacement, FP).
With `N#Cc1c(-c2cccs2)[n+]([O-])c2cc(S(N)(=O)=O)ccc2[n+]1[O-]` the Ki was 0.178 ± 0.013 µM (Carbonic anhydrase 12 (CA12, Homo sapiens, UniProt O43570)).
The Ki of `CCCCCCCCCCCO` is reported as 0.78 µM (FLP; binding, fluorescence displacement; together with: 1-NPN 2 µM).
With `CC[N+](CC)(CC)CC` the Ki was 390 ± 40 µM (Sh (Drosophila melanogaster, UniProt P08510, C301S/C308S/del6-46/T449F); potassium current, blocker, voltage clamp; Xenopus oocytes; 50 mV holding potential).
`O=c1ccn([C@H]2CC[C@@H](CO)O2)c(=O)[nH]1` has a Ki of 2260 ± 540 µM (uracil transporter; uracil uptake, inhibitor; Trypanosoma brucei brucei, bloodstream form; 30 s, together with: 0.15 µM [3H]-uracil).
`CCCCCCCCCCO` has a Ki of 1.83 µM (FLP; binding, fluorescence displacement; together with: 1-NPN 2 µM).
`O=C(O[C@@H]1Cc2c(O)cc(O)cc2O[C@@H]1c1cc(O)c(O)c(O)c1)c1cc(O)c(O)c(O)c1` gave a Ki of 595 µM (Solute carrier family 22 member 6 (Rattus norvegicus, UniProt O35956); transporter uptake, inhibitor).
`NCCCNc1ncnc2c1ncn2[C@@H]1O[C@H](CN(CC#Cc2cccc(C(N)=O)c2)CC[C@H](N)C(=O)O)[C@@H](O)[C@H]1O` has a Ki of 0.21 µM (NNMT; enzyme activity, inhibitor, fluorescence).
`[Ca+2]` has a Ki of 32000 µM (Cyclic nucleotide-gated channel alpha-2 (CNGA2, Bos taurus, UniProt Q03041, E340G); single-channel current, blocker, outside-out patch; E340G mutant, +80 mV, together with: cGMP 1 mM).
With `CCCN(CCC1(O)CC(NC(=O)c2ccc(OC)cc2)C1)[C@H]1CCc2nc(N)sc2C1` (stereo in doubt) the Ki was 2.66 ± 0.461 µM (dopamine D2-like receptor, rat; radioligand binding; rat striatal membranes; high-affinity component, together with: [3H]spiperone).
For `Oc1cccc2c1CC[C@H]1[C@H]2CCCN1CCN1CCN(c2ccccc2)CC1` (racemic), the Ki was 0.0491 µM and 0.049 µM (D(2) dopamine receptor (Drd2, Rattus norvegicus, UniProt P61169); ligand displacement, radioligand; cell membranes).
For `OB(O)c1ccc(/N=N/c2ccccc2)cc1`, the Ki was 131 ± 24 µM (Calcium release-activated calcium channel protein 1, with STIM1 (ORAI1, Homo sapiens, UniProt Q96D31); CRAC current, inhibitor, whole-cell patch clamp; HEK293 expressing STIM1 and ORAI1).
With `CC1(CCN2CCc3ccccc3C2)Cc2cc(Cl)ccc2C1=O` (centres unmarked) the Ki was 0.871 µM (5-hydroxytryptamine receptor 2A (HTR2A, Homo sapiens, UniProt P28223); radioligand binding; together with: [3H]Ketanserin).
The Ki of `O=c1[nH]cc(Cl)c(=O)[nH]1` is reported as 560 ± 180 µM (uracil transporter; uracil uptake, inhibitor; Trypanosoma brucei brucei, bloodstream form; 30 s, together with: 0.15 µM [3H]-uracil).
For `Nc1nc2c(c(=O)[nH]1)C[C@@H](CCc1ccc(C(=O)N[C@@H](CCC(=O)O)C(=O)O)cc1)CN2`, the Ki was 20 µM (Serine hydroxymethyltransferase, cytosolic (SHMT1, Homo sapiens, UniProt P34896); enzyme activity, inhibitor, absorbance).
With `CCCN(CCC1(O)CC(NS(=O)(=O)c2ccc(Cl)cc2)C1)[C@H]1CCc2nc(N)sc2C1` (stereo in doubt) the Ki was 0.542 ± 0.079 µM (dopamine D2-like receptor, rat; radioligand binding; rat striatal membranes; high-affinity component, together with: [3H]spiperone).
The Ki of `Nc1nc2c(ncn2[C@@H]2O[C@H](COP(=O)(O)OP(=O)(O)O)[C@@H](O)[C@H]2O)c(=O)[nH]1` is reported as 49 µM (Lrrk2; GTPase activity, inhibitor, radiometric TLC; together with: GTP).
`O=C1CCNC(=O)N1` gave a Ki of > 5000 µM (uracil transporter; uracil uptake, inhibitor; Trypanosoma brucei brucei, bloodstream form; 30 s, together with: 0.15 µM [3H]-uracil).
`COc1cc(Cl)c(S(=O)(=O)N2CCCCC2)cc1Cl` has a Ki of 0.00043 ± 5e-05 µM (Melanopsin (OPN4, Homo sapiens, UniProt Q9UHM6); binding, competition binding; CHO-Opn4 cell membranes; together with: tritiated 2-isomer, 300 pM).
For `CCCCCc1ccc(O)c(C(=O)O)c1`, Ki read “no inhibition” (KAT8; enzyme activity, inhibitor; up to 400 µM, together with: 4 µM acetyl-CoA, 60 µM histone substrate).
The Ki of `CCCN(CC[C@]1(O)C[C@H](NC(=O)c2cccc(Cl)c2)C1)[C@H]1CCc2nc(N)sc2C1` (relative stereo) is reported as 0.101 ± 0.012 µM (dopamine D2-like receptor, rat; radioligand binding; rat striatal membranes; high-affinity component, together with: [3H]spiperone).
`O=C(O)c1cccc(SCc2cccc(Nc3ncc4c(-c5ccc(N6CCOCC6)cc5)[nH]nc4n3)c2)c1` gave a Ki of 5.5 ± 2.4 µM (Unconventional myosin-Va (Gallus gallus, UniProt Q02440); ATPase activity; two-headed construct with light chains).
With `CCCC/C=C/C=O` the Ki was 5.6 ± 0.1 µM (CYP2E1; competitive inhibitor; human liver S9; 30 min, pH 7.4, together with: p-nitrophenol substrate).
`O=c1cn[nH]c(=O)[nH]1` gave a Ki of 663 ± 125 µM (uracil transporter; uracil uptake, inhibitor; Trypanosoma brucei brucei, bloodstream form; 30 s, together with: 0.15 µM [3H]-uracil).
`Nc1ncnc2c1ncn2[C@@H]1O[C@H](COP(=O)(O)OP(=O)(O)O)[C@@H](O)[C@H]1O` has a Ki of 300 µM (Lrrk2; GTPase activity, inhibitor, radiometric TLC; together with: GTP).

For quick reference, copied from above:
`COc1cc(Cl)c(S(=O)(=O)N2CCCCC2)cc1Cl` has a Ki of 0.00043 ± 5e-05 µM (Melanopsin (OPN4, Homo sapiens, UniProt Q9UHM6); binding, competition binding; CHO-Opn4 cell membranes; together with: tritiated 2-isomer, 300 pM).
For `CCCCCC(C)=O`, the Ki was 14.1 µM (FLP; binding, fluorescence displacement; together with: 1-NPN 2 µM).
`O=C(O[C@@H]1Cc2c(O)cc(O)cc2O[C@@H]1c1cc(O)c(O)c(O)c1)c1cc(O)c(O)c(O)c1` gave a Ki of 595 µM (Solute carrier family 22 member 6 (Rattus norvegicus, UniProt O35956); transporter uptake, inhibitor).
For `CCCCCc1ccc(O)c(C(=O)O)c1`, Ki read “no inhibition” (KAT8; enzyme activity, inhibitor; up to 400 µM, together with: 4 µM acetyl-CoA, 60 µM histone substrate).
`O=C(O)c1cccc(SCc2cccc(Nc3ncc4c(-c5ccc(N6CCOCC6)cc5)[nH]nc4n3)c2)c1` gave a Ki of 5.5 ± 2.4 µM (Unconventional myosin-Va (Gallus gallus, UniProt Q02440); ATPase activity; two-headed construct with light chains).
`Nc1ncnc2c1ncn2[C@@H]1O[C@H](COP(=O)(O)OP(=O)(O)NP(=O)(O)O)[C@@H](O)[C@H]1O` gave a Ki of 700 ± 100 µM (Lrrk2; enzyme activity, inhibitor, radiometric; Ki,e, together with: LRRKtide substrate varied).
`[Ca+2]` has a Ki of 32000 µM (Cyclic nucleotide-gated channel alpha-2 (CNGA2, Bos taurus, UniProt Q03041, E340G); single-channel current, blocker, outside-out patch; E340G mutant, +80 mV, together with: cGMP 1 mM).
